Assay results collected from several papers.
Protocols differ between the studies behind these lines.
Route: oral

| SMILES | assay | test system | setting | quantity | value |
| --- | --- | --- | --- | --- | --- |
| C=CC(=O)NC1CCN(c2ncc3ncnc(Nc4ccc(Oc5ccc6c(c5)ncn6C)c(C)c4)c3n2)CC1 | – | male patients | dose not given, treatment-related adverse events | patients with upper abdominal pain | 0% |
| CCOc1c([C@H](C)n2nc(C)c3c(N)ncnc32)cc(Cl)c(F)c1[C@@H]1CNC(=O)C1 | item: QRS ≤100 ms | previously treated B-cell malignancy | 10 mg once daily, baseline below thresholds | patients | 100% |
| COc1cc(Nc2ncc3c(n2)-c2ccc(Cl)cc2C(c2c(F)cccc2OC)=NC3)ccc1C(=O)O | item: Dyspnea, grade 3 | cancer patients, phase 1/2 | dose not given, with: pembrolizumab | patients with adverse event | 4% |
| CCO[C@H]1CCN(Cc2c(OC)cc(C)c3[nH]ccc23)[C@H](c2ccc(C(=O)O)cc2)C1 | item: Dyspepsia | PNH patients, active haemolysis | 200 mg twice daily, extension phase | patients with adverse event | 0% |
| C=CC(=O)Nc1cc(Nc2nccc(-c3cn(C)c4ccccc34)n2)c(OC)cc1N(C)CCN(C)C | item: Pain grade ≥3 | EGFR-mutant MET-altered NSCLC | dose not given, study | patients with treatment-related AEs | 0% |
| CNC(=O)c1cc(Oc2ccc(NC(=O)Nc3cc(C(C)(C)C)nn3-c3ccc4ncccc4c3)c(F)c2)ccn1 | – | patients | dose not given, cycles 1 and 2, Low Cmax subgroup | patients with grade 1 musculoskeletal disorders | 24% |
| CNC(=O)c1ccc(-c2cnc3ncc(Cc4ccc5ncccc5c4)n3n2)cc1F | item: Nausea, all grades | cancer patients | 600 mg twice daily, expansion cohort, any causality | patients with adverse event | 42% |
| C[C@@H](Nc1cc(F)cc(F)c1)c1cc(C(=O)N(C)C)cc2c(=O)cc(N3CCOCC3)oc12 | CTCAE v4, item: AST increased | patients with advanced solid tumours | dose not given, phase I dose expansion | patients discontinuing for AE | 0% |
| Cc1cc(NC2CCN(C(=O)OC3CCN(C(=O)/C=C/CN(C)C)C3)CC2)n2ncc(C(C)C)c2n1 (stereo not shown) | CTCAE v4.0, item: Flatulence | patients with advanced solid tumours | dose not given, all schedules, grade 3 or higher | patients with TEAE | 0% |
| O=C(Nc1nc2cccc(-c3ccc(CN4CCS(=O)(=O)CC4)cc3)n2n1)C1CC1 | item: abdominal discomfort | rheumatoid arthritis patients | 200 mg once daily, 4 weeks, any relatedness | patients with adverse event | 0% |

Excerpt of the above:
| SMILES | assay | test system | setting | quantity | value |
| --- | --- | --- | --- | --- | --- |
| CNC(=O)c1ccc(-c2cnc3ncc(Cc4ccc5ncccc5c4)n3n2)cc1F | item: Nausea, all grades | cancer patients | 600 mg twice daily, expansion cohort, any causality | patients with adverse event | 42% |
| C[C@@H](Nc1cc(F)cc(F)c1)c1cc(C(=O)N(C)C)cc2c(=O)cc(N3CCOCC3)oc12 | CTCAE v4, item: AST increased | patients with advanced solid tumours | dose not given, phase I dose expansion | patients discontinuing for AE | 0% |
